Results gathered from unrelated publications.
“And” joins repeats or separate records; there may be more than shown. ± gives the spread as reported.
UniProt Q13547, sequence (whole entry, looked up): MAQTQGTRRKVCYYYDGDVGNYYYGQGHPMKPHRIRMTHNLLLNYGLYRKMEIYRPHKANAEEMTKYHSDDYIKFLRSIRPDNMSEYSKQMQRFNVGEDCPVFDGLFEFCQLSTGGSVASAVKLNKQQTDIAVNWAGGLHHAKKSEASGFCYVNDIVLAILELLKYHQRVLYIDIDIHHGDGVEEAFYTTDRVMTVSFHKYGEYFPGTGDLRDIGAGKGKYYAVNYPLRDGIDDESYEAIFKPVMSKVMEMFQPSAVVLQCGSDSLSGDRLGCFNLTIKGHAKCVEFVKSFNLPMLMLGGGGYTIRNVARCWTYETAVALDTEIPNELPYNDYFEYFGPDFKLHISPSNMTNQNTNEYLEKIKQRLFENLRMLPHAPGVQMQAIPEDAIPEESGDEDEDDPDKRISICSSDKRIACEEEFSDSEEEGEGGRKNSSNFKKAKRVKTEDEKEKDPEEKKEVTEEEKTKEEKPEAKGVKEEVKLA

`Cc1nn(-c2ccc(Cl)cc2)c2c1C(c1ccc(F)cc1F)C(C#N)=C(N)O2` (stereo not drawn) gave a viability of 44.6% (Vero; MTT; 100 µM).
`O=C(Nc1ccccc1F)c1cc2c(=O)n3ccccc3nc2n1Cc1ccccc1` gave a viability of 78.4% (Vero; MTT; 0.4 µM, 24 (unit not given)).
The viability of `CC(=N)S` is reported as 62.2% (THLE-2, 3D culture; MTT; 400 µM, 96 h).
`Cc1cccn2c(=O)c3cc(C(=O)Nc4ccc(N(C)C)cc4)n(C)c3nc12` has a viability of 84.3% (Vero; MTT; 1.6 µM, 24 (unit not given)).
`C[C@H]1CN(c2n[nH]c3nc(N[C@H]4CC[C@H](NS(=O)(=O)CCC(F)(F)F)CC4)ncc23)CCO1` has a relative abundance of 1.18 (HDAC1 (Homo sapiens, UniProt Q13547); inhibitor, Kinobeads competition profiling; 20 µM; reference: vehicle).
With `CC(C)C[C@H](NC(=O)[C@H](C)NC(=O)[C@@H](NC(=O)[C@H](CCCNC(=N)N)NC(=O)[C@H](CC(C)C)NC(=O)[C@H](Cc1c[nH]c2ccccc12)NC(=O)[C@@H]1CCCN1C(=O)[C@@H](N)CCCCN)C(C)C)C(=O)N[C@@H](CS)C(=O)N1CCC[C@H]1C(=O)NCC(=O)O` the viability was 104% and 81.2% and 101% (Vero; WST-1; 512 µM, 24 h).
With `Cc1cc(NC(=O)c2cc3c(=O)n4cccc(C)c4nc3n2C)ccc1Br` the viability was 91.9% (Vero; MTT; 0.4 µM, 24 (unit not given)).
`O=C(Nc1ccc(SSc2ccc(NC(=O)c3ccccc3)cc2)cc1)c1ccccc1` gave a viability of 67.5% (Jurkat E6-1; WST-8; 10 µM, 24 h; reference: control).
`COc1cc2c(Oc3ccc4[nH]c(C)cc4c3F)ccnc2cc1OCC1(N)CC1` gave a Nausea incidence of 0% (paediatric recurrent refractory sarcoma; 8 mg).
`Cn1c(C(=O)Nc2ccc(Cl)cc2)cc2c(=O)n3ccccc3nc21` gave a viability of 91.2% (Vero; MTT; 0.4 µM, 24 (unit not given)).
With `CNCCCN1c2ccccc2CCc2ccccc21` the IC50 was 12.6 µM (Plasmodium falciparum; HB3).
`O=C(O)CNC(=O)[C@H](Cc1ccccc1)NC(=O)[C@@H](Cc1ccccc1)NC(=O)OCc1ccccc1` gave a viability of 96.5 ± 0.7% (Vero/SLAM cells; CCK-8; 100 µM, 24 h, 1% DMSO).
`CCc1ccc(NC(=O)c2cc3c(=O)n4ccccc4nc3n2C)cc1` gave a viability of 52.7% (Vero; MTT; 100 µM, 24 (unit not given)).
With `CO[C@H]1C[C@@H]2CC[C@@H](C)[C@@](O)(O2)C(=O)C(=O)N2CCCC[C@H]2C(=O)O[C@H]([C@H](C)C[C@@H]2CC[C@@H](OC(=O)NCCOCCOCCOCCOCCOCCOCCOCCOCCC(=O)N3CCc4cc(Cn5nc(-c6ccc7oc(N)nc7c6)c6c(N)ncnc65)ccc4C3)[C@H](OC)C2)C[C@@H](O)[C@H](C)/C=C(\C)[C@@H](O)[C@@H](OC)C(=O)[C@H](C)C[C@H](C)/C=C/C=C/C=C/1C` the TRAE incidence was 41.7% (phase 1 dose escalation, refers to: vomiting; advanced solid tumour patients; intravenous, 6 mg weekly, any grade).
For `N=C(N)NCCC[C@@H](NC(=O)[C@H](Cc1ccccc1)NC(=O)[C@@H](Cc1ccccc1)NC(=O)OCc1ccccc1)C(N)=O`, the viability was 99.4 ± 2.6% (Vero/SLAM cells; CCK-8; 100 µM, 24 h, 1% DMSO).
The viability of `Cc1nn(-c2ccc(Cl)cc2)c2c1C(c1ccc(-c3ccccc3)cc1)C(C#N)=C(N)O2` (stereo not drawn) is reported as 49.1% (Vero; MTT; 100 µM).
For `CC[C@H](C)[C@H](NC(=O)[C@H](Cc1ccccc1)NC(=O)[C@H](CCC(=O)O)NC(=O)[C@H](CCCNC(=N)N)NC(=O)[C@H](C)NC(=O)[C@H](C)NC(=O)[C@H](CCC(N)=O)NC(=O)[C@H](CCC(=O)O)NC(=O)[C@H](CCC(=O)O)NC(=O)[C@H](CC(C)C)NC(=O)[C@H](Cc1ccc(O)cc1)NC(=O)[C@H](CO)NC(=O)[C@H](CO)NC(=O)[C@@H](NC(=O)[C@H](CC(=O)O)NC(=O)[C@H](CO)NC(=O)[C@@H](NC(=O)[C@H](Cc1ccccc1)NC(=O)[C@@H](NC(=O)CNC(=O)[C@H](CCC(=O)O)NC(=O)[C@H](C)NC(=O)CCc1c[nH]cn1)[C@@H](C)O)[C@@H](C)O)C(C)C)C(=O)N[C@@H](C)C(=O)N[C@@H](Cc1c[nH]c2ccccc12)C(=O)N[C@@H](CC(C)C)C(=O)N[C@H](C(=O)N[C@@H](CCCNC(=N)N)C(=O)NCC(=O)N[C@@H](CCCNC(=N)N)C(=O)N[C@@H](CCCCNC(=O)COCCOCCNC(=O)COCCOCCNC(=O)CC[C@H](NC(=O)CCCCCCCCCCCCCCCCC(=O)O)C(=O)O)C(=O)NCC(=O)NCC(=O)N[C@@H](CO)C(=O)N[C@@H](CCCCNc1c(NCCCCCN(O)C(=O)CCC(=O)NCCCCCN(O)C(=O)CCC(=O)NCCCCCN(O)C(C)=O)c(=O)c1=O)C(=O)O)C(C)C` [zirconium-89 labelled], the tissue uptake was 1.02 %ID/g (rat, liver; iv, 3 nmol/kg, 4 h, ex vivo).
With `O=C(Nc1cccc(OS(=O)(=O)c2ccc(Cl)cc2)c1)c1ccc2ncccc2c1` the viability was 78.31 ± 0.78% (1321N1 astrocytoma; MTT; 100 µM, 24 h).
The IC50 of `CP(=O)(O)CCCN` is reported as 3.16 µM (Plasmodium falciparum; GB4).
For `O=S(=O)(Nc1ccc(-c2n[nH]c(=S)o2)cc1)c1ccc(C(F)(F)F)cc1`, the viability was 70% and 70.2% (1321N1 astrocytoma; MTT; 100 µM, 24 h).
For `Cn1cc2cc(C(F)(F)c3nnc4ccc(-c5cnn(C6CC6)c5)nn34)c(F)cc2n1`, the viability was 6.25% and 6.22% and 5.62% (MKN-45; CCK-8; 0.1 µM, 72 h; reference: untreated).
